Results of several laboratories.
± gives the spread as reported.

SMILES = [2H]C([2H])([18F])[C@]([2H])(N)C(=O)O; cell line = U-87 MG; conditions = concentration not given, together with: L-serine; endpoint = inhibition of cellular uptake; value = 80%
SMILES = O=C(C[Se]C(=O)c1ccco1)Nc1cccc(C(F)(F)F)c1; cell line = NCI60 breast subpanel; test = cell growth; conditions = 10 µM, 48 h, one-dose; endpoint = mean growth percent; value = -18.8%
SMILES = NC(=O)N/N=C/c1ccc(OCc2ccccc2)cc1; cell line = IMR-32; conditions = 100 µg/mL, 24 h; how to read = higher = more activity; endpoint = catalase activity (OD450); value = 0.139 a.u.
SMILES = CC(C)(C)C(=O)OCOP(=O)(OCOC(=O)C(C)(C)C)C1CCCN(O)C1=O (stereo not shown); cell line = OVCAR-4; endpoint = log TGI; value = -4.22 log M
SMILES = Cc1c(Cl)c(=O)oc2cc(OCCCCCC[Se]C#N)ccc12; cell line = MIA PaCa-2; test = cell growth or viability, SRB; endpoint = GI50; value = 17 µM
SMILES = CC1OC2OC3C4=C(OC3(C)C12O)C(=O)c1c(O)cccc1C4=O (stereo not shown); cell line = SCC-40; test = sulforhodamine B; conditions = 10 µg/mL, 48 h; how to read = negative means cell kill; endpoint = growth percent; value = -32.5%
SMILES = CSCC[C@H](NC(=O)[C@@H](NC(=O)[C@H](CCC(N)=O)NC(=O)[C@H](CO)NC(=O)[C@@H](N)C(C)C)[C@@H](C)O)C(=O)N[C@@H](CCCNC(=N)N)C(=O)N[C@@H](CCC(N)=O)C(=O)N[C@H](C(=O)N[C@@H](C)C(=O)N[C@H](C(=O)N1CCC[C@H]1C(=O)N[C@@H](CC(C)C)C(=O)N[C@@H](CC(C)C)C(=O)N[C@@H](Cc1c[nH]c2ccccc12)C(=O)N[C@@H](Cc1ccccc1)C(=O)N[C@@H](Cc1c[nH]c2ccccc12)C(=O)N[C@H](C(=O)NCC(=O)N[C@@H](CO)C(=O)N[C@@H](CC(C)C)C(=O)NCCOCCOCCOCCOCCOCCOCCOCCOCCOCCOCCOCCOCCC(=O)N[C@@H](CS)C(N)=O)[C@@H](C)O)C(C)C)[C@@H](C)O; cell line = HCC827; test = phage binding; how to read = reference: targeting over control phage; endpoint = selectivity ratio; value = 1.9 ± 0.66
SMILES = COc1ccccc1-c1ccncc1C(=O)Nc1nnc(OCc2ccc(Cl)cc2)s1; cell line = HCT-116 BRCA2 wild-type; conditions = 2 µM; how to read = reference: untreated; endpoint = colony survival; value = 96.8%
SMILES = N[C@@H]1C[C@H]1c1ccccc1 (racemic); cell line = MOLM-13; test = cell growth or viability, resazurin; conditions = 96 h; endpoint = EC50; value = > 2000 nM
SMILES = COc1ccc2c(c1)c(CC(=O)[Se]CC(=O)Nc1cccc(C(F)(F)F)c1)c(C)n2C(=O)c1ccc(Cl)cc1; cell line = NCI60 breast subpanel; test = NCI60 five-dose screen; endpoint = CC50; value = 11 µM

Some of these lines once more:
SMILES = [2H]C([2H])([18F])[C@]([2H])(N)C(=O)O; cell line = U-87 MG; conditions = concentration not given, together with: L-serine; endpoint = inhibition of cellular uptake; value = 80%
SMILES = O=C(C[Se]C(=O)c1ccco1)Nc1cccc(C(F)(F)F)c1; cell line = NCI60 breast subpanel; test = cell growth; conditions = 10 µM, 48 h, one-dose; endpoint = mean growth percent; value = -18.8%
